{"data": "Measurements pooled from the literature", "note": "Parts stem from different laboratories: compare values within a part only. Substitutions count along the parent as printed."}
{"data": "Series 1", "target": "ABI1, truncated, D143A, DHFR fusion (Arabidopsis thaliana)", "technique": "DHFR PCA, deep sequencing", "sample": "yeast", "setting": "methotrexate growth selection, single substitutions", "with": "(+)-ABA 17 µM", "baseline": "wild-type fitted maximum", "reading": "higher = stronger binding", "starting sequence": "PYL1, truncated, DHFR fusion (Arabidopsis thaliana); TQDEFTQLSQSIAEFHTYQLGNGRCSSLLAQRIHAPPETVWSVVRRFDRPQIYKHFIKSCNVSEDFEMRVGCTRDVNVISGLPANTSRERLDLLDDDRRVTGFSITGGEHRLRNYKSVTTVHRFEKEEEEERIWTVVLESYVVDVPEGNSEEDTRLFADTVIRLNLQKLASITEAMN"}
{"Variant": "V76Q", "relative binding score": "2.01%"}
{"Variant": "Y141Q", "relative binding score": "-12.2%"}
{"Variant": "S171R", "relative binding score": "91.4%"}
{"Variant": "I79E", "relative binding score": "36.2%"}
{"Variant": "E152N", "relative binding score": "74.6%"}
{"Variant": "S80A", "relative binding score": "13.4%"}
{"Variant": "T154Q", "relative binding score": "-3.38%"}
{"data": "Series 2", "target": "CCNB2, cyclin fold, Cln2 fusion (human)", "technique": "yeast growth competition, sequencing", "sample": "yeast", "setting": "weak parent motif", "baseline": "not given", "reading": "higher = stronger binding", "starting sequence": "ORC1 docking peptide (human); PRARKRLELGNLG; partner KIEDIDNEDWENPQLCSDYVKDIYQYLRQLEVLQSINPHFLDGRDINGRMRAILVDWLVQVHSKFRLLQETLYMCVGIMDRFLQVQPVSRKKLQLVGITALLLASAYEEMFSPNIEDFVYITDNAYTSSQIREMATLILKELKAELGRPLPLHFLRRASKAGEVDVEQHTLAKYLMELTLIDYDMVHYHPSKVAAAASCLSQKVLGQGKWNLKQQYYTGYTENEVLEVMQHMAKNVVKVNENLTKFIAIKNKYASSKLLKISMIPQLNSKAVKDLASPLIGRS"}
{"Variant": "PRAIKRLELGNLG [R4I]", "normalised enrichment score": 0.195}
{"Variant": "PRARKRLELGELG [N11E]", "normalised enrichment score": -0.236}
{"Variant": "PRARKRLELGNLW [G13W]", "normalised enrichment score": 0.184}
{"Variant": "PRARKRKELGNLG [L7K]", "normalised enrichment score": 1.71}
{"Variant": "PRARKRQELGNLG [L7Q]", "normalised enrichment score": 0.446}
{"Variant": "PRARKRLELGNEG [L12E]", "normalised enrichment score": 0.464}
{"Variant": "MRARKRLELGNLG [P1M]", "normalised enrichment score": 0.249}
{"Variant": "PRARKRLELGNWG [L12W]", "normalised enrichment score": 0.921}
{"Variant": "PRKRKRLELGNLG [A3K]", "normalised enrichment score": 0.333}
{"data": "Series 3", "target": "RNA binding protein fox-1 homolog 2, RRM domain, GST-SBP tag (RBFOX2, Homo sapiens, UniProt O43251-10, residues 100-194)", "technique": "RNA Bind-n-Seq", "molecule type": "RNA", "sample": "in vitro", "tested at": "365 nM", "setting": "natural RNA segment, single round, ends assumed", "baseline": "no-protein control", "reading": "higher = stronger binding", "all sequences stand within": "GGGAGUUCUACAGUCCGACGAUC … UGGAAUUCUCGGGUGCCAA"}
{"Strand": "AAAUGCGUGCACUUUCAGGUCAGUACUGGGGACCAAGUACCCUCUGGUCUUUUGUGAAUGGAUGGUUUUGUUUCCUAUGGGAAUUUUGGCAAAGGUUUUCUGGAAAGAAC", "RBNS enrichment (R)": 0.88}
{"Strand": "CUCUAAAAAAAUAAAAACUUAGCAAGGCAUGGUGGUGCACACCUGUAGUCCUAGCUACUCAGGAGGCUGAGGUGGAGGAUCACUUAAGCCUGAGAGGUCAAGGUUGCAAU", "RBNS enrichment (R)": 0.39}
{"Strand": "UUAGAAUUUUUCUUUAAAUUAUGGUUUUCUUAUUCGUGAAAAUUCGGAGAGUGCUGCUAAAAUUGGAUUGGUGUGAUCUUUUUGGUAGUUGUAAUUUAACAGAAAAACAC", "RBNS enrichment (R)": 0.754}
{"Strand": "CCAAAGGGGAAACACAUUUGAAAGCUUUUAAAAUGUAGACUUCAUUAUCCAUACCCAUGGAAACUAAAGAGAAGCCUGCCCCAUUUCUUCGUCCUUUGUUUGCCUUUGUG", "RBNS enrichment (R)": 0.599}
{"Strand": "UUCAGGACUGUUCCUUGGUGUUUGAGGGAAACUUUAGUGGGAUUGCAGUGGAAUGUAAGGUCAGGGCACGUGGGUGCUCUCUCGGGGUGGGGUGACUGGGAGACCUAGAG", "RBNS enrichment (R)": 1.5}
{"Strand": "UGCCAAUCCUGUCCCUGAAGCAGGGGGAGGCACAGAUUGUCCGUGGGAGUGAGUCAGUGUCUGGGAGUGGGGUAGGCAGCUUCCAUUAGGGUCCUUUUCCUUCACCAGCA", "RBNS enrichment (R)": 0.589}
{"Strand": "AAAUAAAUUUGCACUGUUCAUUUUUCUGGCCUCGCUGUUCUCCAUAGAGCAAGGGUAAUCCUAGAAAAAAUUUUUUUUUUUUAAAUUAUGCAACGUAAGAUGUCCUCCUU", "RBNS enrichment (R)": 0.515}
{"data": "Further values, each from its own experiment"}
{"Substance": "PhoQ, residues 284 288 289 292 302 303 SLSLLA", "target": "PhoP, residues 12 14 15 18 19 NMSFL (Escherichia coli, UniProt P23836)", "assay": "Sort-seq, refers to: YFP reporter", "system": "E. coli", "conditions": "PhoQ-PhoP variant library, with: 10 µM Mg2+", "how to read": "baseline: high Mg2+ state, higher = stronger signaling", "quantity": "fold induction", "result": 2.23}
{"note": "Some of these lines once more (series 1):"}
{"Variant": "E152N", "relative binding score": "74.6%"}
{"Variant": "Y141Q", "relative binding score": "-12.2%"}
{"Variant": "S171R", "relative binding score": "91.4%"}
{"Variant": "I79E", "relative binding score": "36.2%"}
